Measured values from different studies.
Lines come from different studies, so protocols differ. “And” joins repeats or separate records; there may be more than shown. ± marks the error that the study gave.

For NCCCOc1cc(NC(=O)c2cc(Cl)cc(C(=O)Nc3cc(OCCCN)c4ccccc4n3)n2)nc2ccccc12, the selectivity ratio was 2 (U2OS; cell viability, CellTiter-Glo; 72 h; relative to: IC50 U2OS over WI-38).
The protein level of CC/C(=N\NC(=O)C(C)Nc1ccccc1)c1ccc(O)c(C)c1O (stereo not shown) is reported as 1.61 ± 0.28 (SK-OV-3; Western blot, item: YAP; 10 µM, 1 h, 2D culture, unit not given; relative to: β-actin).
For C[C@@H]1CC[C@H]2C(C)(C)[C@H]3C[C@@]12CC[C@@]3(C)O, the activity score was 9.4 (human iPSC-derived cardiomyocytes; MyBP-C/MYH ratio, plate-normalised SD score; concentration not given, primary screen; direction not given).
CSc1cc(Oc2ccnc3[nH]c(=O)cnc23)ccc1NC(=O)Nc1cc(C(C)(C)C)nn1-c1ccccc1: “phospho/total p53 ratio” 0.9 (patient-derived cell clone A (sample B); reverse phase protein array, item: p53 pSer15; human; 1 µM, 4 h; relative to: DMSO).
Under “mean growth percent”, O=C(Nc1nnc2n3c(Cc4ccccc4)n[nH]c3nc(-c3ccc(Cl)cc3)c1-2)c1ccccc1 is recorded as 101% (NCI60 cell panel; SRB; 10 µM).
COc1ccc(C(=O)/C=C/Sc2nc3ccccc3o2)cc1 gave an efficacy of 38% (C127 LDR GFP reporter cells; silenced GFP reporter induction, activator, high-content imaging; retest, two-run mean).
Cc1cccc(-c2[nH]c(CNc3ccccc3F)nc2-c2ccc3ncnn3c2)n1 has a viability of 29% and 50% and 37% (MM1.S pomalidomide-resistant; XTT; 2.25 µM).
The activity score of CN[C@@H]1[C@@H](O)[C@@H](O[C@@H]2[C@@H](O)[C@H](O[C@H]3OC(CN)=CC[C@H]3N)[C@@H](N)C[C@H]2N)OC[C@]1(C)O is reported as 3.3 (human iPSC-derived cardiomyocytes; MyBP-C/MYH ratio, plate-normalised SD score; concentration not given, primary screen; direction not given).
C[C@H]1[C@@H](O)O[C@@H]2O[C@@]3(C)CC[C@H]4[C@H](C)CC[C@@H]1[C@@]24OO3: “late apoptotic cells” 1.1% (K562; annexin V/PI flow cytometry, item: annexin V+/PI+; 3.2 µM, 24 h).
CCCCN1CCN(c2ccc3[nH]c(-c4ccc5[nH]c(-c6cc(OC)c(OC)c(OC)c6)nc5c4)nc3c2)CC1 gave a growth percent of 59% (M14; SRB; 10 µM, 48 h).
The activity score of CC(=O)OCC(=O)[C@@]1(OC(C)=O)[C@@H](C)C[C@H]2[C@@H]3C[C@H](F)C4=CC(=O)C=C[C@]4(C)[C@@]3(F)[C@@H](O)C[C@@]21C is reported as 3.1 (human iPSC-derived cardiomyocytes; MyBP-C/MYH ratio, plate-normalised SD score; concentration not given, primary screen; direction not given).
For CCCCN1C[C@H](O)[C@@H](O)[C@@H](O)[C@H]1CO, the IC50 was 10700 nM (sample BB patient fibroblasts; Gb3 level lowering, LC-MS/MS, item: Gb3 d18:1/24:1; 216 h).
CCCCCCCCCCCCCCCCCCO: ISG expression “no effect” (HepAD38; item: ISG15, OAS1, APOBEC3G; concentration not given, added: IFN-α 200 IU).
With C=C1C(=O)O[C@@H]2[C@H]3O[C@]3(C)CC/C=C(/C)CC[C@@H]12 the efficacy was 58% (C127 LDR GFP reporter cells; silenced GFP reporter induction, activator, high-content imaging; retest, two-run mean).
CCc1cnc(N2CCC(c3nc(COc4ccc(-n5cnnn5)cc4)cs3)CC2)nc1 — result for “normalized enrichment score”: 2.08 (HEK-293T; RNA-seq GSEA, item: Hallmark cholesterol homeostasis; concentration not given; direction not given).
With CCN(CC)C(=S)SSC(=S)N(CC)CC the efficacy was 104% (C127 LDR GFP reporter cells; silenced GFP reporter induction, activator, high-content imaging; retest, two-run mean).
The cell lysis of CC(C)(O)c1coc(S(=O)(=O)NC(=O)Nc2c3c(cc4c2CCC4)CCC3)c1 is reported as 24.4% (THP-1 cells, LPS-primed; pyroptosis, LDH release; 25 µM, LPS 1 µg/mL, 4 h, added: nigericin 5 µM, 2 h).
With Cc1nc(NC(=O)N2CCC[C@H]2C(N)=O)sc1-c1ccnc(C(C)(C)C(F)(F)F)c1 the Hill coefficient was 0.979 (TCC-SUP; cell growth, CellTiter-Glo; 120 h).
For COc1ccc(-n2nc(C(C)=O)s/c2=N\N=C(/C)c2ccc(NC(=O)c3ccccc3)cc2)cc1, the toxicity was 97.5% (MCF7; 10 µM).
CCn1cc(-c2cc(Cn3ccnc3)cc3c2CCN([C@H](c2cc(OC)ccn2)C2CC2)C3=O)c(C(F)(F)F)n1 has an EC50 of 1.25 nM (PECAPJ15; cell growth; 120 h).
For CC[C@H](C)/C=C/C(=O)N1C[C@@H](C)C[C@H]1C(=O)N[C@@H](CCC1CCCCC1)C(=O)N[C@@H](CC(C)C)C(=O)NC(C)(C)C(=O)N[C@@H](CC(C)C)C(=O)N[C@@H](CC(C)C)C(=O)NC(C)(C)C(=O)NC(C)(C)C(=O)NCCC(=O)N[C@@H](C)CN(C)C, respiration read “no inhibition” (permeabilized human fibroblasts; high-resolution respirometry; 50 nM, after first injection, added: succinate).
O=C(/C=C/C=C/C=C/C1CCCCC1)NC1=C[C@@](O)(/C=C/C=C/C=C/C(=O)NC2=C(O)CCC2=O)[C@@H]2O[C@@H]2C1=O has a GI50 of 11900 nM (EBC-1; cell growth, CellTiter-Glo; 78 h).
With COc1ccc2c(c1)c1ccc3c(c1n2C)C(=O)C=CC3=O the efficacy was 71% (C127 LDR GFP reporter cells; silenced GFP reporter induction, activator, high-content imaging; retest, two-run mean).
COc1cnc2cccc(N3CCc4c(cc(Cn5ccnc5C)cc4-c4cn(C)nc4C(F)(F)F)C3=O)c2c1 gave an EC50 of over 30000 nM (EBC-1; cell growth, inhibitor; 120 h).
For CC(=O)OC1CC2CCC1(C)C2(C)C (stereo not shown), the activity score was 5.7 (human iPSC-derived cardiomyocytes; MyBP-C/MYH ratio, plate-normalised SD score; concentration not given, primary screen; direction not given).
With Cc1ccc(CNC(=O)Cn2cc(CSc3nc4ccccc4[nH]3)nn2)cc1 the cytotoxicity was 90.1% (HEK293; MTT; 250 ppm).
CSc1nc(-c2ccc(Cl)cc2)c2c(NC(=O)c3ccccc3)nnc-2[nH]1 — result for “mean growth percent”: 93.2% (NCI60 cell panel; SRB; 10 µM).
OO — result for “total actin filament intensity”: “increased” (U2OS; 4 mM, 15 min, added: 1.2 M sorbitol; relative to: control).
With COc1cccc(N2CCN(S(=O)(=O)c3ccc(-n4cnnn4)cc3)CC2)c1 the maximum efficacy was 33% (C127 LDR GFP reporter cells; silenced GFP reporter induction, activator, high-content imaging; independent samples, two-run mean).
For CNc1ncnc2c1c(-c1ccc3cc(OC4CC4)ccc3c1)nn2CC(C)(C)O, “oxygen consumption rate” read “no effect” (LNCaP and LNCaP-95; mitochondrial respiration, Seahorse; concentration not given).
Cc1cnc2ccc3c(c2n1)N1CCC(O)N=C1N3C (stereo not shown): “relative colony forming efficiency” 0% (BALB/c 3T3; 50 µM; relative to: solvent control).
CCCCCCCCCCCCCC(=O)N[C@@H](CCSC)C(=O)N[C@@H](C)C(=O)N[C@@H](CO)C(=O)N[C@@H](CCCNC(=N)N)C(=O)NCC(=O)N[C@@H](C)C(=O)N[C@@H](CC(C)C)C(=O)N[C@@H](CCCNC(=N)N)C(=O)N[C@@H](CCCNC(=N)N)C(=O)N[C@@H](CS)C(=O)N[C@@H](CC(C)C)C(=O)N[C@@H](CO)C(=O)N1CCC[C@H]1C(=O)NCC(=O)N[C@@H](CC(C)C)C(=O)N1CCC[C@H]1C(=O)N[C@@H](CCCNC(=N)N)C(=O)N[C@@H](CC(C)C)C(=O)N[C@@H](CC(C)C)C(=O)N[C@@H](Cc1c[nH]cn1)C(=O)N[C@@H](CC(C)C)C(=O)N[C@@H](CO)C(=O)N[C@@H](CCCNC(=N)N)C(=O)NCC(=O)N[C@@H](CC(C)C)C(=O)N[C@@H](C)C(N)=O: viability “inhibited” (U2OS; cell viability, XTT; concentration not given, osteosarcoma).
COc1ccc(NC(=S)N/N=C/c2cccc3cc4ccccc4nc23)cc1 gave a necrotic cells of 2.8 ± 0.1% (HeLa; annexin V/PI flow cytometry; IC25, 48 h, added: N-acetylcysteine).
For N#CCC(=O)NN, the activity score was 3.8 (human iPSC-derived cardiomyocytes; MyBP-C/MYH ratio, plate-normalised SD score; concentration not given, primary screen; direction not given).
CC(C)S(=O)(=O)c1ccc2nccc(Nc3ccc4scnc4c3)c2c1: “time to cleaved caspase-3 accumulation” at most 1.5 h post treatment (3T3-SA; concentration not given).
With C=CC1=C(C)c2cc3[n-]c(cc4nc(cc5[n-]c(cc1n2)c(C)c5C=C)C(C)=C4CCC(=O)O)c(CCC(=O)O)c3C.[Zn+2] the fold change was 3.15 (SH-SY5Y; RNA-seq, item: CMKLR1 mRNA; 5 µM, 5 h; relative to: untreated cells).
The efficacy of Cc1cc(N2CCN(c3ccc([N+](=O)[O-])c4cccnc34)CC2)c2ccccc2n1 is reported as 30% (C127 LDR GFP reporter cells; silenced GFP reporter induction, activator, high-content imaging; retest, two-run mean).
Cn1cc(-c2ccc(-c3cncc(Cl)c3N3CCC4(CCNC4=O)CC3)cc2)cn1 — result for “fold change in expression”: 2.85 (COLO 205; microarray, item: c-Jun; concentration not given, 4 h; relative to: untreated cells).
For O=C(CCCSc1nc2ccccc2c(=O)[nH]1)Nc1ccc(OC(F)F)cc1, the inhibition was 78 ± 3% (cells, COS-1, expressing proMMP-9; cell migration, 2D collagen dot migration; 50 µM, 18 h).
CN1CCC(=C2c3ccccc3Sc3ccccc32)CC1 gave an activity score of 4.1 (human iPSC-derived cardiomyocytes; MyBP-C/MYH ratio, plate-normalised SD score; concentration not given, primary screen; direction not given).
For Cc1cc(Nc2ncc(Cl)c(Nc3ccccc3S(=O)(=O)C(C)C)n2)c(OC(C)C)cc1C1CCNCC1, “log2 fold change” read -1.51 (CLB-GE; phosphoproteomics LC-MS/MS, item: SLC35B3 phosphorylation; 200 nM, 60 min; relative to: untreated).
For C/C(=C(\CCOP(=O)(O)O)SC(=O)c1ccccc1)N(C=O)Cc1cnc(C)nc1N, the activity score was 3.1 (human iPSC-derived cardiomyocytes; MyBP-C/MYH ratio, plate-normalised SD score; concentration not given, primary screen; direction not given).
Under “HSP70 upregulation duration”, COc1c(C)cnc(Cn2cc(C#CCCOP(=O)(O)O)c3c(Cl)nc(N)nc32)c1C is recorded as over 48 h (PBMC and cell lines).
For CCn1cc(-c2cc(Cn3ccoc3=N)cc3c2CCN([C@@H](C)c2cc(OC)ccn2)C3=O)c(C(F)(F)F)n1, the EC50 was 4.08 nM (SNU478; cell growth; 120 h).
C[C@]12CCCN1CC1=NNC(=O)c3cc(F)cc4[nH]c2c1c34 has an EC50 of 400 nM (SW-620 colorectal cancer cells; cell viability; concentration not given, added: with temozolomide).
Cn1cc(Nc2nccc(-c3ccc4c(c3)CN(C3COC3)CC[C@H]4NC(=O)c3cn(C(C)(C)C)nn3)n2)cn1: “pathway activation z-score” 1.94 (mouse splenic B cells; item: Prolactin signalling; 30 mg/kg, IgD-activated in vivo; relative to: vehicle, direction not given).
For COc1cc2ncnc(Nc3ccc(Oc4ccccc4)c(C)c3C)c2cc1OC.Cl, “average fractional effect” read 28% (LoVo (KRAS G13D); cell viability, resazurin; 3 µM, 72 h, added: trametinib 0 nM; relative to: DMSO).
With CN(C)CCOc1ccc(/C(=C(/CCCl)c2ccccc2)c2ccccc2)cc1 the activity score was 17.1 (human iPSC-derived cardiomyocytes; MyBP-C/MYH ratio, plate-normalised SD score; concentration not given, primary screen; direction not given).
Clc1nc(NCc2ccco2)c2[nH]cnc2n1 gave a ΔPSI of -0.268 (FD iPSC-derived cardiomyocytes; alternative splicing, RNA-seq, item: GLA exon chrX(-):101399743-101399800; unit not given; relative to: DMSO minus compound).

A few entries again:
COc1ccc(NC(=S)N/N=C/c2cccc3cc4ccccc4nc23)cc1 gave a necrotic cells of 2.8 ± 0.1% (HeLa; annexin V/PI flow cytometry; IC25, 48 h, added: N-acetylcysteine).
CCCCCCCCCCCCCCCCCCO: ISG expression “no effect” (HepAD38; item: ISG15, OAS1, APOBEC3G; concentration not given, added: IFN-α 200 IU).
With CN(C)CCOc1ccc(/C(=C(/CCCl)c2ccccc2)c2ccccc2)cc1 the activity score was 17.1 (human iPSC-derived cardiomyocytes; MyBP-C/MYH ratio, plate-normalised SD score; concentration not given, primary screen; direction not given).
